Assay results pooled from the literature.
Parts stem from different laboratories: compare values within a part only.

Block 1
Target: Histone acetyltransferase KAT6A, both winged helices, GST fusion (KAT6A, Homo sapiens, UniProt Q92794, residues 1-181)
Technique: protein binding microarray
Form: double-stranded DNA, one strand shown
Sample: in vitro
Tested at: not given
Setting: 8-mer, flanks averaged, mean of 2 arrays, mostly near background
Baseline: not given
Direction: higher = stronger binding
Target sequence (chain): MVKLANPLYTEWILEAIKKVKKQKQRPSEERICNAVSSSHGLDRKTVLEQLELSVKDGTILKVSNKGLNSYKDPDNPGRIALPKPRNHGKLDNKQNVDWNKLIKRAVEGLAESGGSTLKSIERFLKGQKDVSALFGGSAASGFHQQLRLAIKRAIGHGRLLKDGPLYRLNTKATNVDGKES
Sequence | E-score
AACACTAT | -0.013
GATGAGCA | -0.133
ACGGTTCA | 0.0774
CATAAACG | 0.104
CACATGAG | -0.0428
GGTCGACA | 0.0443
AGGTGCTA | -0.0927
AACCACTT | -0.17

Block 2
Target: PABPC1L2, full length, GST fusion (mouse, UniProt A0ABA7IW68)
Technique: RNAcompete
Form: RNA
Sample: in vitro
Tested at: 20 nM
Setting: 7-mer, probes averaged, single round
Baseline: mean of 7-mers
Direction: higher = stronger binding
Construct (chain): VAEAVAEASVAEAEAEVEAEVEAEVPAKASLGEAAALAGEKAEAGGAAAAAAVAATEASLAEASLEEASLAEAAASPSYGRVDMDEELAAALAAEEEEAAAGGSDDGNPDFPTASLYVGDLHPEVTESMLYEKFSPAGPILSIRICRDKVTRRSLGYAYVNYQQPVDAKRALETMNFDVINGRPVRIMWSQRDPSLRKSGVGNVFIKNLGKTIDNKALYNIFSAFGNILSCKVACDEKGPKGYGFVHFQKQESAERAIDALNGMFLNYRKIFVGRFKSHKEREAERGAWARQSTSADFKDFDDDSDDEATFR
Sequence | 7-mer Z-score
CGCGGUG | 0.133
AUUUCAC | -0.148
UGGGUUA | -0.0337
UACAUCA | -0.0319
AGUUCGA | -0.347
UGAAUGC | -0.295
UGGGGGG | 0.146
UAGGCAU | 0.0279

Other studies, line by line
Molecule | target or system | test | test system | conditions | endpoint | value
IQGAP1 (Homo sapiens, UniProt P46940) | MYL6 (Homo sapiens, UniProt P60660) | cross-linking MS | cell fractions | added: DMTMM | cross-linked residues | K774 to E14
LTDRELLLL | HLA class I histocompatibility antigen, A alpha chain, allele A*80:01 (Homo sapiens, UniProt P04439) | peptide-MHC binding | peptide | concentration not given | binding | inactive
PSMD9 (Homo sapiens, UniProt O00233) | PSMC3 (Homo sapiens, UniProt P17980) | cross-linking MS | cell fractions | added: DSSO | cross-linked residues | K91 to K173
UTP14A (Homo sapiens, UniProt Q9BVJ6) | DCAF13 (Homo sapiens, UniProt Q9NV06) | cross-linking MS | cell fractions | added: DMTMM | cross-linked residues | E131 to K445
FUOM (Homo sapiens, UniProt A2VDF0) | PTBP1 (Homo sapiens, UniProt P26599) | cross-linking MS | cell fractions | added: DMTMM | cross-linked residues | K5 to E74

A few entries again (other studies, line by line):
Molecule | target or system | test | test system | conditions | endpoint | value
PSMD9 (Homo sapiens, UniProt O00233) | PSMC3 (Homo sapiens, UniProt P17980) | cross-linking MS | cell fractions | added: DSSO | cross-linked residues | K91 to K173
UTP14A (Homo sapiens, UniProt Q9BVJ6) | DCAF13 (Homo sapiens, UniProt Q9NV06) | cross-linking MS | cell fractions | added: DMTMM | cross-linked residues | E131 to K445
FUOM (Homo sapiens, UniProt A2VDF0) | PTBP1 (Homo sapiens, UniProt P26599) | cross-linking MS | cell fractions | added: DMTMM | cross-linked residues | K5 to E74
